Measurements pooled from the literature.
Compare with care: the assays were run in different laboratories.
Target: Adenosine receptor A1 (ADORA1, Homo sapiens, UniProt P30542)
Chain of UniProt P30542 (whole entry, looked up): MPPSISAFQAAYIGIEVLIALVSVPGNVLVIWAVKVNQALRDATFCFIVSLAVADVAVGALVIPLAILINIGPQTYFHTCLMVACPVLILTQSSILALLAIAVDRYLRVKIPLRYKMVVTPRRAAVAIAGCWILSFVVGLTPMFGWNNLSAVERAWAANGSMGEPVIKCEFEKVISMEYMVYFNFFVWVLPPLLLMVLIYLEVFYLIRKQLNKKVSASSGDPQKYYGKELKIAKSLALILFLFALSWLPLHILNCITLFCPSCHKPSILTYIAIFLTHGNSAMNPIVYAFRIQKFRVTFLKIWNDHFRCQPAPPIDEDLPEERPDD

| Compound | test | conditions | endpoint | result |
| --- | --- | --- | --- | --- |
| N[C@H](C(=O)N1CCCC1)C1CCN(c2nccc3c(-c4ncc(Cl)cc4Cl)cccc23)CC1 | functional response, agonist | 10 µM | response | -2% |
| CS(C)(=O)=Nc1ccc(-c2ccc(-c3nc4cc(O[C@@H]5CO[C@H]6[C@@H]5OC[C@H]6O)[nH]c4cc3F)cc2)cc1 | calcium signal, antagonist | 10 µM | inhibition | 2% |
| Cc1ccc2c(n1)c(-c1cccc(S(C)(=O)=O)c1)c(C)n2C/C(F)=C/CN | ligand displacement, radioligand | 10 µM | inhibition | 4% |
| CCOC(=O)[C@](CC)(CCCSCCOCCOCCNC(=O)c1ccc(-c2c3ccc(=N)c(S(=O)(=O)O)c-3oc3c(S(=O)(=O)O)c(N)ccc23)c(C(=O)O)c1)NC(=O)c1ccc(C2CC2)c(Cc2ccc(F)cc2)n1 | ligand displacement, radioligand | 10 µM | inhibition | 2% |
| C[C@H](NCc1ccc(-c2ccc(C(F)(F)F)cc2)cc1)C(N)=O | radioligand binding, SafetyScreen panel | 1 µM, species human, added: 1.0 nM [3H]DPCPX | inhibition | 3% |
| CN[C@@H]1[C@H](O)[C@H](NC)[C@H]2O[C@]3(O)[C@H](O[C@@H]2[C@H]1O)O[C@H](C)C[C@H]3NC(=O)Cc1ccc(Cl)cn1 | ligand displacement, radioligand | 10 µM | inhibition | 5% |
| Cc1sc2c(c1C)C(c1ccc(Cl)cc1)=NC(CC(=O)OC(C)(C)C)c1nnc(C)n1-2 (centres unmarked) | ligand displacement, radioligand | 1 µM | inhibition | -10% |
| COc1ccc(F)cc1S(=O)(=O)Nc1cnc2c(c1)C(=O)NCCO2 | ligand displacement, radioligand | 10 µM | inhibition | -2% |

A few entries again:
| Compound | test | conditions | endpoint | result |
| --- | --- | --- | --- | --- |
| Cc1sc2c(c1C)C(c1ccc(Cl)cc1)=NC(CC(=O)OC(C)(C)C)c1nnc(C)n1-2 (centres unmarked) | ligand displacement, radioligand | 1 µM | inhibition | -10% |
